Assay results gathered from unrelated publications.
± marks the error that the study gave.

SMILES	assay	test system	setting	scale	measurement	result
CC(C)n1c(Nc2cccnc2)nc2cnc(Nc3ccc(N4CCN(C)CC4)cc3)nc21	refers to: γ-glutamyltransferase increased	healthy male subjects	oral, 150 mg, study, with: rifampin		subjects with adverse event	0%
CN(CCC(=O)O)C(=O)c1ccc2c(c1)CC[C@@H]1[C@@H]2CC[C@]2(C)C(c3cncc(F)c3)=CC[C@@H]12		premenopausal women, endometriosis pain, serum	60 mg twice daily, visit 6, median	reference: baseline	total bilirubin change	0.5 mg/dL
CCOC(=O)[C@H](CCc1ccccc1)N[C@@H](C)C(=O)N1[C@H](C(=O)O)C[C@H]2CCCC[C@@H]21		processed human plasma	30 pg/mL, 48 h, 4 °C	reference: nominal	autosampler stability	103 ± 9.5%
Cc1cc(NC2CCN(C(=O)OC3CCN(C(=O)/C=C/CN(C)C)C3)CC2)n2ncc(C(C)C)c2n1 (stereo not shown)		patients with advanced solid tumours	dose not given, Total arm, any grade		patients with adverse events	96%
COc1ncc(-c2nc3c(n2C(C)C)[C@H](c2ccc(Cl)cc2)N(c2cc(Cl)cn(C)c2=O)C3=O)c(OC)n1		human patients, plasma	oral, 20 mg, 0-24 h, low-dose arm, cycle 2 day 1		AUC(0-t) geometric mean	2290 ng·h/mL
O=C(N[C@H](Cc1c[nH]c2ccccc12)C(=O)Nc1ccncc1)c1ccc(N2CCN(c3ccc(F)cc3F)CC2)cc1F		Swiss Webster mouse, female, muscle	oral, 50 mg/kg, 2 h, 20% HPβCD vehicle		concentration	1030 nM
NC[C@@]1(CC(=O)O)[C@@H]2CC[C@H]3C[C@@H]2[C@@H]1C3		human, severe renal impairment, plasma	dose not given, geometric mean		unbound AUC(0-t)	5850 ng·h/mL
CC[C@H](C)[C@H](NC(=O)[C@H](C)N)C(=O)N[C@@H](CCCCN)C(=O)N[C@@H](C)C(=O)N[C@H](C(=O)N[C@@H](C)C(=O)N[C@@H](CCCCN)C(=O)N[C@@H](C)C(=O)N[C@@H](C)C(=O)NCC(N)=O)[C@@H](C)CC	circular dichroism	10 mM SDS	100 µM		helix content	6%
CNc1ccc(-c2nc3ccc(O)cc3s2)cc1 [carbon-11 labelled]	microPET/CT imaging	APP/PS1 mouse, AD model, brain	intravenous, 10 min		SUV	0.436 ± 0.172
O=C(O)C1=CO[C@@H](O[C@@H]2O[C@H](CO)[C@@H](O)[C@H](O)[C@H]2O)[C@@H]2C(CO)=CC[C@H]12		rat plasma	8 ng/mL, 2 weeks, -70 °C, post-preparative stability		accuracy	88.1%
O=C(CCCCCCC(=O)Nc1ccc(CC[18F])cc1)NO		athymic nu/nu male mice, LNCaP xenograft, heart	intravenous, 1 h		tissue uptake	1.6 ± 0.3 %ID/g
N#Cc1ccc2c(c1)[C@H]1CCCN(C(=O)c3ccc4[nH]cnc4c3)[C@H]1C2		human	360 mg, end of trial		minimum ACTH level	1.7 pmol/L
CCc1cc(C(=O)NC)c2nccc(N3CCc4c(cc(Cn5ccnc5)cc4-c4cn(C)nc4C(F)(F)F)C3=O)c2c1		Sprague Dawley rats	oral, 100 mg/kg twice daily, 7 days	reference: vehicle	serum RBC change	-1.82%
Cn1cc(-c2cn3nccc3c(-c3cnn([C@]4(CC#N)C[C@@H](C#N)C4)c3)n2)cn1		human, urine	oral, 100 mg once daily, day 10, dosing interval geometric mean		amount excreted unchanged in urine	1.1 mg
c1ccc2c(c1)ccc1cc3c(ccc4ccccc43)cc12		PDMS-water partitioning	PAH compilation	reference: maximum over minimum K	literature range factor	2
NC1(C(=O)N[C@@H](CCO)c2ccc(Cl)cc2)CCN(c2nc[nH]c3nccc2-3)CC1		metastatic CRPC patients	320 mg b.i.d., grade 3 to 4, treatment-related, with: enzalutamide 160 mg daily		incidence of Erythema	0%
CC(C(=O)NCC(=O)NCC(CNC(=O)CNC(=O)C(C)N1CCN(CC(=O)[O-])CCN(CC(=O)[O-])CCN(CC(=O)[O-])CC1)(CNC(=O)CNC(=O)C(C)N1CCN(CC(=O)[O-])CCN(CC(=O)[O-])CCN(CC(=O)[O-])CC1)CNC(=O)CNC(=O)C(C)N1CCN(CC(=O)[O-])CCN(CC(=O)[O-])CCN(CC(=O)[O-])CC1)N1CCN(CC(=O)[O-])CCN(CC(=O)[O-])CCN(CC(=O)[O-])CC1.[Gd+3].[Gd+3].[Gd+3].[Gd+3] (stereo not shown)	ICP-MS	cynomolgus monkey, plasma	intravenous bolus, first sample after dosing		Tmax	0.0333 h
C[Si]1(C)O[Si](C)(C)O[Si](C)(C)O[Si](C)(C)O[Si](C)(C)O1		air/water	concentration not given		entropy of phase change	0.476 kJ/(mol·K)
COC(=O)C1=CO[C@@H](O[C@@H]2O[C@H](CO)[C@@H](O)[C@H](O)[C@H]2O)[C@@H]2C(CO)=CC[C@H]12	post-procedure stability	rat plasma	200 ng/mL, 3 h, room temperature		accuracy	117%
Cc1ccc([C@@H]2O[C@H](CO)[C@@H](O)[C@H](O)[C@H]2O)cc1Cc1ccc(-c2ccc(F)cc2)s1		Japanese type 2 diabetes patients	100 mg, day 2, 24 h urine collection	reference: baseline	urinary sodium excretion change	-18.9 mEq
O=C(Nc1nc2cccc(-c3ccc(CN4CCS(=O)(=O)CC4)cc3)n2n1)C1CC1	refers to: renal and urinary disorders	rheumatoid arthritis patients	oral, 75 mg once daily, 4 weeks, any relatedness		treatment-emergent adverse events	0%
COc1ccc2[nH]c([S@+]([O-])Cc3ncc(CO)c(OC)c3C)nc2c1		human, dried plasma spots	dose not given, mean, with: fluvoxamine and voriconazole	reference: inhibition over control	AUC fold change	0.81 fold

SMILES	assay	test system	setting	scale	measurement	result
CNC(=O)c1ccc(-c2cnc3ncc(Cc4ccc5ncccc5c4)n3n2)cc1F		HCC patients	oral, 600 mg twice daily, all grades RP2D expansion		abdominal distension incidence	9%
COc1cc(C(=O)NC2CCN(C)CC2)c(F)cc1Nc1ncc(C(F)(F)F)c(Oc2cccc3c2C(=O)N(C)C3)n1		human patients, plasma	oral, 100 mg single dose, geometric mean		dose-normalised Cmax	13.2 nmol/L per mg
O=C(Nc1ccc(OC(F)(F)Cl)cc1)c1cnc(N2CC[C@@H](O)C2)c(-c2ccn[nH]2)c1	per treatment cycle, refers to: hemoglobin decrease	human patients	oral, dose not given, 28 day cycle, dose-finding study		grade ≥3 event rate	0.9%
CCN1/C(=C/C(C)=O)Sc2ccc(F)cc21		cynomolgus monkey	oral, 30 mg/kg, 0.5 h post-dose		QTc interval (Bazett)	331 ± 13 ms
CN1CCN(c2cccc3c2CCN(C(=O)/C=C/c2c(-n4cnnn4)ccc(Cl)c2F)[C@@H]3C(=O)Nc2ccc(C(=O)O)cc2)C(=O)C1		healthy human subjects	intravenous infusion, 10 mg/h, 2 h		subjects with any adverse event	0%
c1ccc2cc3ccccc3cc2c1		polyethylene-water partitioning	PAH compilation	reference: maximum over minimum K	literature range factor	4
O=C(c1cccnc1-c1ccncc1)N1CCC(O)(Cc2ccccc2)CC1		healthy Japanese adults, plasma	oral, 200 mg twice daily, day 14		Cmax/dose	4.9 ng/mL/mg
Cl.[2H]C([2H])([2H])CC(=O)c1cnc(NC(=O)C2CC2)cc1Nc1cccc(-c2ncn(C([2H])([2H])[2H])n2)c1OC	geometric mean	human	oral, 20 mg twice daily, day 7, fed, liquid, multiple dose		AUC(0-inf)	2420 ng·h/mL
Cc1cc(Nc2ccc(S(F)(F)(F)(F)F)cc2)n2nc(C(C)(F)F)nc2n1		Plasmodium vivax malaria patients	oral, 400 mg		adverse event Diarrhoea	0%
CCC(=O)O[C@]1(C(=O)SCF)[C@H](C)C[C@H]2[C@@H]3C[C@H](F)C4=CC(=O)C=C[C@]4(C)[C@@]3(F)[C@@H](O)C[C@@]21C	three-compartment model	rat, plasma	intravenous, 90 nmol/kg		slow compartment volume	9 ± 3.5 L/kg
CNCCOC12CC3(C)CC(C)(CC(Cn4ncc(-c5ccc(N6CCc7cccc(C(=O)Nc8nc9ccccc9s8)c7C6)nc5C(=O)O)c4C)(C3)C1)C2		anaesthetised male beagle dogs	intravenous bolus, 0.03 mg/kg, 45 min	reference: baseline	cardiac output change	-14%
CC(C)(C(=O)N1CCOc2c(C#N)cncc2C1)C(F)F	refers to: Dyspepsia	human	oral, 20 mg twice daily, 14 days, multiple ascending dose		subjects with adverse event	0%
CC(C)C[C@H](NC(=O)[C@@H](Cc1c[nH]c2ccccc12)NC(=O)[C@H](Cc1ccc(O)cc1)NC(=O)[C@H](CO)NC(=O)[C@H](Cc1c[nH]c2ccccc12)NC(=O)[C@H](Cc1c[nH]cn1)NC(=O)[C@@H]1CCC(=O)N1)C(=O)N[C@@H](CCCNC(=N)N)C(=O)N1CCC[C@H]1C(=O)NCC(N)=O		Chinese CPP girls	intramuscular, 22.5 mg, 12 months, day 1, month 6		patients, drug-related Constipation TEAEs	1.6%
OC[C@H]1O[C@@H](c2ccc(Cl)c(Cc3ccc(O[C@H]4CCOC4)cc3)c2)[C@H](O)[C@@H](O)[C@@H]1O		Japanese type 1 diabetes patients, blood	2.5 mg, day 28	reference: baseline	change in Bicarbonate	-0.9 mEq/L
C=C[C@@](C)(/C=C/c1ccc(O)cc1)CCC=C(C)C	post-procedure stability	rat plasma	1000 ng/mL, 3 h, room temperature		accuracy	108%
NC(=O)c1cc(Oc2ccc(NC(=O)Nc3ccc(Cl)c(C(F)(F)F)c3)c(F)c2)cc[n+]1[O-]	short-term stability	mouse plasma	75 ng/mL, 8 h, room temperature		accuracy	112%
C=CCn1c(=O)c2cnc(Nc3ccc(N4CCN(C)CC4)cc3)nc2n1-c1cccc(C(C)(C)O)n1		human	oral, 175 mg twice daily, cycle 1 day 17, with: durvalumab 1500 mg IV	median	Tmax	2.1 h
C[C@@H](Oc1ccc(S(C)(=O)=O)cc1C(=O)N1C[C@@H]2C[C@]2(c2cc(C(F)(F)F)on2)C1)C(F)(F)F		young humans, plasma	oral, 25 mg once daily, multiple dose, geometric mean		Vz/F at steady state	317 L
CC(C)(Sc1ccncc1-c1ccc(C#N)c2ccccc12)C(=O)O		human, urine	oral, 10 mg, with: febuxostat 0 mg		amount excreted in urine (0-24 h)	189 µg
COc1cc(Nc2ncc3c(n2)-c2ccc(Cl)cc2C(c2c(F)cccc2OC)=NC3)ccc1C(=O)O	refers to: Dizziness, all grades	cancer patients, phase 1/2	oral, dose not given, with: pembrolizumab		patients with adverse event	13%
O=S(=O)(c1ccc(-c2ccc3nccc(Nc4ccncn4)c3c2)cc1)N1CCOCC1		female BALB/c mice, brain homogenate	intraperitoneal, 10 mg/kg, 0.08 h, mean		brain concentration	29.1 ng/mL

Some of these lines once more:
SMILES	assay	test system	setting	scale	measurement	result
O=C(O)C1=CO[C@@H](O[C@@H]2O[C@H](CO)[C@@H](O)[C@H](O)[C@H]2O)[C@@H]2C(CO)=CC[C@H]12		rat plasma	8 ng/mL, 2 weeks, -70 °C, post-preparative stability		accuracy	88.1%
NC(=O)c1cc(Oc2ccc(NC(=O)Nc3ccc(Cl)c(C(F)(F)F)c3)c(F)c2)cc[n+]1[O-]	short-term stability	mouse plasma	75 ng/mL, 8 h, room temperature		accuracy	112%
Cc1ccc([C@@H]2O[C@H](CO)[C@@H](O)[C@H](O)[C@H]2O)cc1Cc1ccc(-c2ccc(F)cc2)s1		Japanese type 2 diabetes patients	100 mg, day 2, 24 h urine collection	reference: baseline	urinary sodium excretion change	-18.9 mEq
